Measurements of several laboratories.
Lines come from different studies, so protocols differ. “And” joins repeats or separate records; there may be more than shown. ± marks the error that the study gave.

| Substance | target or system | assay | system | conditions | how to read | measurement | value |
| --- | --- | --- | --- | --- | --- | --- | --- |
| TCP-1 alpha |  | co-immunoprecipitation | human RBC cytosol | DSSO crosslinker, unit not given, added: Band 3 peptide 1-56 bait | relative to: negative control | co-IP enrichment | 13100 |
| insulin glargine |  | self-monitoring | type 2 diabetic patients | dose not given, one-week bedtime treatment |  | mean blood glucose | 129 ± 13 mg/dL |
| human HSC70 |  | co-immunoprecipitation | human RBC cytosol | unit not given, added: Band 3 peptide 1-56 bait | relative to: negative control | co-IP enrichment | 0 |
| SGTHFSLFL |  | CD8 T cell response | peptide, naive splenocytes as APCs, mouse | 2 µg/mL, 48 h |  | IFN-γ ELISpot response | negative |
| calcium |  | ion current, two-electrode voltage clamp | Xenopus oocytes | 10 mM, 80 mV, added: niflumic acid present |  | desensitization time constant | 12.8 s and 7.59 s and 8.47 s and 7.82 s and 7.3 s |
| liraglutide |  |  | Wistar rat, female, diet-induced obese, blood, fasted | subcutaneous, dose not given, after 4 weeks treatment |  | blood glucose | 104 ± 2.4 mg/dL |
| Pam2CSK4 |  |  | APP/PS1 mouse, cortex | local injection, dose not given, unit not given | relative to: injected over adjacent side | Iba1 level | 4.54 and 6.51 and 4.68 |
| YEQDPWGVKWWY |  |  | peptide, mouse, CP model, serum | 0.154 µmol/kg, 4 weeks | relative to: untreated CP mice | serum IL-2 | inhibited |
| GSGAGKETYY | human MAGI1-2/6 PDZ construct (MBP fusion) | surface plasmon resonance | peptide | concentration not given | higher = stronger binding | normalised SPR binding response | 0 normalised RU |
| somatropin |  |  | children with severe GH deficiency, short stature | dose not given, mutation-negative cases, mean |  | height gain in first year of therapy | 10 cm |
| LTPLVPEEL |  | CD8 T cell response | peptide, naive splenocytes as APCs, mouse | 2 µg/mL, 48 h |  | IFN-γ ELISpot response | negative |
| maraviroc |  | ELISA | HIV-infected mice, brain | i.p., 120 mg/kg twice daily, 3 weeks post infection | relative to: HIV-infected untreated mice | reversal of Aβ40 reduction | 2.63 fold |
| insulin aspart |  | euglycaemic clamp | human, type 1 diabetes | subcutaneous, 0.3 U/kg, geometric mean |  | maximum glucose infusion rate | 9.55 mg/kg/min |
| FKBP12 |  | co-immunoprecipitation | human RBC cytosol | DSSO crosslinker, unit not given, added: Band 3 peptide 1-56 bait | relative to: negative control | co-IP enrichment | 0 |
| semaglutide |  |  | Wistar rat, male, diet-induced obese | subcutaneous, dose not given |  | cumulative caloric intake | 3210 ± 98 kcal |
| QYIKLYPVL |  | CD8 T cell response | peptide, naive splenocytes as APCs, mouse | 2 µg/mL, 48 h |  | IFN-γ ELISpot response | negative |
| human GAPDH |  | co-immunoprecipitation | human RBC cytosol | unit not given, added: Band 3 peptide 1-56 bait | relative to: negative control | co-IP enrichment | 3.71 |
| QYLAPRNTL |  | CD8 T cell response | peptide, naive splenocytes as APCs, mouse | 2 µg/mL, 48 h |  | IFN-γ ELISpot response | negative |
| cotadutide |  | metabolomics, item: hepatic lysine | ob/ob mice on AMLN diet, NASH model, liver | dose not given |  | metabolite level | 1.04 ± 0.03 scaled intensity |
| insulin degludec |  | euglycaemic hyperinsulinaemic clamp | healthy Chinese male humans | subcutaneous, 0.4 IU/kg, 24 h, 1 FC level, single dose, reference formulation |  | maximum glucose infusion rate | 3.02 ± 0.61 mg/kg/min |

| Substance | target or system | assay | system | conditions | how to read | measurement | value |
| --- | --- | --- | --- | --- | --- | --- | --- |
| human complement C3 |  | co-immunoprecipitation | human RBC cytosol | no crosslinker, unit not given, added: Band 3 peptide 1-56 bait | relative to: negative control | co-IP enrichment | 0 |
| colistin | Klebsiella pneumoniae | broth microdilution | clinical isolate RKI-No_68/16 |  |  | MIC | 64 µg/mL |
| insulin glargine |  | euglycaemic clamp | type 1 diabetes patients | dose not given | relative to: test over US reference insulin | ratio of GIRmax | 0.98 |
| QGRWDHETIV | human MAGI1-3/6 PDZ construct (MBP fusion) | automated holdup | peptide, crude extract | concentration not given, corrected by standard peak, unit not given | relative to: biotin control resin, higher = stronger binding | binding intensity | 0.329 |
| VGSMGALVF |  | CD8 T cell response | peptide, naive splenocytes as APCs, mouse | 2 µg/mL, 48 h |  | IFN-γ ELISpot response | negative |
| difelikefalin |  |  | Japanese haemodialysis patients with pruritus | intravenous, 0.5 µg/kg, 8 weeks |  | PGIC very much improved | 37.3% |
| CCT4 |  | co-immunoprecipitation | human RBC cytosol | DSSO crosslinker, unit not given, added: Band 3 peptide 1-56 bait | relative to: negative control | co-IP enrichment | 150 |
| insulin aspart |  | euglycaemic glucose clamp | human, adults with type 1 diabetes, up to 35 years | subcutaneous, 0.2 U/kg |  | time to GIRmax | 125 min |
| glucagon |  |  | mouse | dose not given, 1 h |  | plasma free fatty acids | 0.349 mmol/L and 0.797 mmol/L and 0.573 mmol/L and 0.536 mmol/L and 0.427 mmol/L and 0.411 mmol/L |
| KCNTATCATQRLANFLVHSSNNFGPILPPTNVGSNTY (Pramlintide; sequence looked up) |  | ELISA | peptide, Tg2576 mouse, CSF | intraperitoneal, dose not given, 10 weeks daily |  | Aβ1-40 level | 182 ± 58.9 pg/mL |
| SGPLLAPLY |  | CD8 T cell response | peptide, naive splenocytes as APCs, mouse | 2 µg/mL, 48 h |  | IFN-γ ELISpot response | negative |
| MTVCNASQRQAHAQATAVSL |  | phage binding | peptide, NSCLC cell line panel | selectivity at least 20 |  | number of cell lines | 2 |
| adenosylhomocysteinase |  | co-immunoprecipitation | human RBC membrane | DSSO crosslinker, unit not given, added: Band 3 peptide 1-56 bait | relative to: negative control | co-IP enrichment | 45.4 |
| RPTSSADEL |  | CD8 T cell response | peptide, naive splenocytes as APCs, mouse | 2 µg/mL, 48 h |  | IFN-γ ELISpot response | negative |
| CpG-ODN 1826 |  |  | mouse B16-F10 tumour, tumour | dose not given, day 8 |  | LAG-3+ T cells | 23.7 ± 7.27% |
| insulin |  |  | gestational diabetes women | dose not given, treated arm |  | caesarean birth incidence | 24% |
| tripeptidyl peptidase 2 |  | co-immunoprecipitation | human plasma | unit not given, added: Band 3 peptide 1-56 bait | relative to: negative control | co-IP enrichment | 0 |
| PPFVAYLHL |  | CD8 T cell response | peptide, naive splenocytes as APCs, mouse | 2 µg/mL, 48 h |  | IFN-γ ELISpot response | negative |
| heparin sodium |  |  | healthy Chinese adult volunteers, plasma | continuous intravenous infusion, 8 IU/kg/h, day 1 to 6 of 5-day infusion, median with range | relative to: baseline | time to maximum prothrombin time ratio | 1.99 h |

Excerpt of the above:
| Substance | target or system | assay | system | conditions | how to read | measurement | value |
| --- | --- | --- | --- | --- | --- | --- | --- |
| VGSMGALVF |  | CD8 T cell response | peptide, naive splenocytes as APCs, mouse | 2 µg/mL, 48 h |  | IFN-γ ELISpot response | negative |
| heparin sodium |  |  | healthy Chinese adult volunteers, plasma | continuous intravenous infusion, 8 IU/kg/h, day 1 to 6 of 5-day infusion, median with range | relative to: baseline | time to maximum prothrombin time ratio | 1.99 h |
| glucagon |  |  | mouse | dose not given, 1 h |  | plasma free fatty acids | 0.349 mmol/L and 0.797 mmol/L and 0.573 mmol/L and 0.536 mmol/L and 0.427 mmol/L and 0.411 mmol/L |
| difelikefalin |  |  | Japanese haemodialysis patients with pruritus | intravenous, 0.5 µg/kg, 8 weeks |  | PGIC very much improved | 37.3% |
